# Measurements of several laboratories.
# Protocols differ between the studies behind these lines. ± marks the error that the study gave.
SMILES,tested on,test,system,setting,how to read,endpoint,result
C[n+]1ccc(/C=N/NC(=O)c2cccc(C(=O)N/N=C/c3cc[n+](C)cc3)n2)cc1,MYC parallel G4 DNA,FRET melting,,"1 µM, DNA 0.2 µM, added: duplex DNA competitor 10 µM",,ΔTm,2.8 ± 0.4 °C
COC1OC(C)C(OS(=O)(=O)O)C(OC2OC(C)C(OS(=O)(=O)O)C(OC3OC(C)C(OS(=O)(=O)O)C(OC4OC(C)C(OS(=O)(=O)O)C(OC5OC(C)C(OS(=O)(=O)O)C(OC6OC(C)C(OS(=O)(=O)O)C(OC7OC(C)C(OS(=O)(=O)O)C(OC8OC(C)C(OS(=O)(=O)O)C(OC9OC(C)C(OS(=O)(=O)O)C(OS(=O)(=O)O)C9O)C8O)C7O)C6O)C5O)C4O)C3O)C2O)C1O (stereo not drawn),,,human plasma,128 µg/mL,baseline: control,prothrombin time prolongation,1.01 fold
Nc1ncc(-c2cc(-c3cnn(CC(F)(F)F)c3)ncc2F)nc1C(=O)NC1CNCC(F)C1 (stereo not drawn),DDR1,KINOMEscan,,1 µM,baseline: DMSO control,remaining binding,96%
CCC(=O)N1CCN(c2ccc(NC(=O)c3ccc([N+](=O)[O-])o3)cc2Cl)CC1,Mus musculus,"gene silencing, high-content imaging",LDR reporter GFP cells,"30 h, retest run 2",,Emax,31%
CC[n+]1cccc2cc(/C=N/NC(=O)c3cncc(C(=O)N/N=C/c4ccc5c(ccc[n+]5CC)c4)n3)ccc21,MYC parallel G4 DNA,FRET melting,,"1 µM, DNA 0.2 µM",,ΔTm,8.8 ± 0.2 °C
Cc1ncsc1-c1ccc(C(C)NC(=O)C2CC(O)CN2C(=O)C(NC(=O)CCCCCCCCCCN2CCCC(Nc3ncc(Cl)c(Nc4ccccc4S(=O)(=O)C(C)C)n3)C2)C(C)(C)C)cc1 (stereo not drawn),22Rv1,"RNA-seq, refers to: LMLN-AS1",,concentration not given,baseline: DMSO,log2 fold change,-2
C[n+]1cc(/C=N/NC(=O)c2cccc(C(=O)N/N=C/c3cc4ccccc4[n+](C)c3)c2)cc2ccccc21,MYC parallel G4 DNA,FRET melting,,"1 µM, DNA 0.2 µM",,ΔTm,5.4 ± 0.1 °C
COC1CN([C@H]2CC[C@H]([C@@]3(C)Oc4c(Cl)cc(C(=O)NCc5c(SC)cc(C)[nH]c5=O)c(C)c4O3)CC2)C1,,"RNA-seq, refers to: MAML2 mouse homolog","mouse, HT-1376 xenograft, whole blood",dose not given,baseline: vehicle,log2 fold change,0.0895
C=CC(=O)N1[C@@H](c2ccc3c(c2)OCO3)c2[nH]c3ccccc3c2C[C@H]1C(=O)N1CCN(C)CC1,human cyclin E1 wild type-3xFLAG:CDK2,"co-IP with TMT proteomics, refers to: PCBP1",,"concentration not given, Q15365",baseline: wild type DMSO,relative co-enrichment,96%
O=[N+]([O-])C(=C\Nc1ccccc1O)/C=N/c1ccccc1O,Mus musculus,"gene silencing, high-content imaging",LDR reporter GFP cells,"30 h, retest run 2",,Emax,38%
CC[n+]1cccc2cc(/C=N/NC(=O)C(=O)N/N=C/c3ccc4c(ccc[n+]4CC)c3)ccc21,hp2 hairpin duplex DNA,FRET melting,,1 µM,,ΔTm,1.8 ± 0.4 °C
CNS(=O)(=O)Nc1nccc(Cc2c(C)c3ccc(Oc4ncccc4F)cc3oc2=O)c1F,OCI-Ly1,cell viability,,7 days,,IC50,> 1 µM
C=CC(=O)Nc1cccc(Cn2ncc3cnc(Nc4cnn(CCOC)c4)nc32)c1,human ICK,KINOMEscan,,100 nM,baseline: control,binding,46%
O=C(N/N=C/c1cc[n+](Cc2ccccc2)c2ccccc12)c1cc(C(=O)N/N=C/c2cc[n+](Cc3ccccc3)c3ccccc23)ncn1,MYC parallel G4 DNA,FRET melting,,"1 µM, DNA 0.2 µM, added: duplex DNA competitor 10 µM",,ΔTm,6.7 ± 0.1 °C
O=C(N/N=C/c1ccccn1)c1cc(-c2ccc(Cl)cc2)nc2ccccc12,Mus musculus,"gene silencing, high-content imaging",LDR reporter GFP cells,retest run 1,,AC50,10 µM

# A few entries again:
SMILES,tested on,test,system,setting,how to read,endpoint,result
COC1OC(C)C(OS(=O)(=O)O)C(OC2OC(C)C(OS(=O)(=O)O)C(OC3OC(C)C(OS(=O)(=O)O)C(OC4OC(C)C(OS(=O)(=O)O)C(OC5OC(C)C(OS(=O)(=O)O)C(OC6OC(C)C(OS(=O)(=O)O)C(OC7OC(C)C(OS(=O)(=O)O)C(OC8OC(C)C(OS(=O)(=O)O)C(OC9OC(C)C(OS(=O)(=O)O)C(OS(=O)(=O)O)C9O)C8O)C7O)C6O)C5O)C4O)C3O)C2O)C1O (stereo not drawn),,,human plasma,128 µg/mL,baseline: control,prothrombin time prolongation,1.01 fold
